Assay results gathered from unrelated publications.
A part holds a random share of what one study measured.

Set 1
Target: RING finger protein unkempt homolog, zinc fingers 1-6, GST-SBP tag (UNK, Homo sapiens, UniProt Q9C0B0, residues 30-357)
Method: RNA Bind-n-Seq
Molecule type: RNA
Sample: in vitro
Concentration: not given
Notes: RNA with constant flanks, human and mouse sites, ends assumed
Reference: input RNA pool
Reading: higher = stronger binding
Constant ends, left off below: GGGAGUUCUACAGUCCGACGAUC … CAACAGAGGAUUGAGCAUCA
Target sequence (chain): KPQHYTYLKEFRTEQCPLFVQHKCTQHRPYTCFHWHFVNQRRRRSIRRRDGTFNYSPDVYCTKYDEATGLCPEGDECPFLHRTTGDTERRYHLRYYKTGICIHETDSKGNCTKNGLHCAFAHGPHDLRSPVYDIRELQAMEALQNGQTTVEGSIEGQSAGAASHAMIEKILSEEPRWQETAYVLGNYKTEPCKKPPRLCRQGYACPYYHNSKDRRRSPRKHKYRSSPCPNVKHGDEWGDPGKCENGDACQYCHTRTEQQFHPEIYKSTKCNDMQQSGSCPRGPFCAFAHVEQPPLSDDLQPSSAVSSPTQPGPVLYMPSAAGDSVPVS
Oligonucleotide	bound/input enrichment [ratio]
GAUUACACGUGGAACUUACUGAAAGCAGGGAAAAUUCCAGAGGAAUUUAAUGUAUUUAAUUUAAUACAAGAAAUGAGAACACAGAGGCACUCGGCAGUACAAACAAAGGAGCAGUAUGAA	0.413
CGUUCAAGAGGAUUUGCCUUUGUAUAUUUUGAAAAUGUAGACGAUGCCAAGGAAGCUAAAGAACGUGCCAAUGGAAUGGAGCUUGAUGGGCGUCGAAUUAGAGUCGAUUUCUCUAUAACA	0.25
CGGGGCGGGGGCCACGGCCCCUCGGGCUAGCGAGGAUGAGCUUCCUCUUCAGCAGCCGCUCUUCGAAAACAUUCAAACCAAAGAAGAAUAUCCCUGAAGGGUCCCAUCAGUAUGAGCUCU	0.14
GAAAAAUUAUCUAGGCCUGAUCUCAAACGGCAGAAUCUACUGUAAUCAAAUCAAUGACUUUUUUAGACACAUUUUAUAAAAAUGCAGCACAUGUAGUGUUGCCCCCCACCCAAUCUGUAU	23.7
UCCGCGCUUCUUAGAAGAGGAGUGAGAGGAAGGCGGGGGGCGCAGCAACGCAUCGUGUGGCCCUCCCCUCCCACCUCCCUGUGUAUAAAUAUUUACAUGUGAUGUCUGGUCUGAAUGCAC	0.0879
AAGCUUUAGUUUACAUGUAAAAAGCUAGUCCCUAACUGGCUGGUGGCACAGGUGACCUGGAGUGAUAAAGAGCUCUGAGCUGGAAAAUGAGUGUCUGGCAUUACUUCAGUCAUGUGCUUU	1.51
AUACUGUGGAUAUUUGUGAAUUGUGUGGUUUGUUUGUUUGUUUUCUUUUAUGUACUGUUGACUAGUUAUGGCACUUACUGAUUAAACUUACACUGCUGCAGAUUGCUGUGUAACAAGCCA	0.461
UGGAGUAGGUCUUAGAGUGUAACAGAUUGUUUUCCUGAGUUAUCCUCUAGGUGAGUAUGUUUUAGGACUAAACACCUUUUGCAGAUACUGAAAGUGCCUCCUUUUGUGGUAUACAAAACA	0.081
AAUGGUACUUCAGCAGCACUGCGUGAAACUGGGGUUAUUGAAAAACUGUUAACCUCUUACGGAUUUAUUCAGUGUUCAGAACGUCAAGCUAGACUUUUCUUCCACUGUUCACAGUAUAAU	0.114
AUGAGAAACAGUAUCUUAGCCCAAGUUCUGGAUCAGUCGGCCCGGGCCAGGUUAAGUAACUUAGCACUUGUAAAGCCUGAAAAAACUAAAGCAGUAGAGAAUUACCUUAUACAGAUGGCA	1.19
UUGAGCAGCGACCCUUUCAAUUUCAACAAUCAAAAUGGCGUGAACAAGGACGAGAAGGACCACUUGAUUGAACGCCUGUACAGAGAGAUCAGUGGACUGACAGGGCAGCUGGACAACAUG	0.316

Set 2
Target: Histone acetyltransferase KAT6A, both winged helices, GST fusion (KAT6A, Homo sapiens, UniProt Q92794, residues 1-181)
Method: protein binding microarray
Molecule type: double-stranded DNA, one strand shown
Sample: in vitro
Concentration: not given
Notes: 8-mer, flanks averaged, mean of 2 arrays, mostly near background
Reference: not given
Reading: higher = stronger binding
Target sequence (chain): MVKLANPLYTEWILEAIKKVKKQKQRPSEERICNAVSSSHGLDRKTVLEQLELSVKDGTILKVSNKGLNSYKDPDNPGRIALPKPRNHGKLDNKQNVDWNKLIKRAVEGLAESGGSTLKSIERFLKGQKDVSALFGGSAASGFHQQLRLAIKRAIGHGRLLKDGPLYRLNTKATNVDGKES
Oligonucleotide	E-score
ATTGTTTA	-0.147
CTAACTAG	-0.0161
AGTGATCA	-0.07
TAGTTATA	0.0109
CGACACGC	0.141
GATTACGA	-0.0925
CACGACCC	-0.0901
ATTCTGGA	-0.0758
TCGTACCA	-0.024
CCAGATCA	-0.0643
CGTCCGAA	0.202
ATCGATGA	-0.034
CACCTACG	0.0379
CCCCTATC	-0.235
CGACTAAC	-0.0605
CCTTGGTA	-0.0426
CAATTGGA	-0.135
CGCCGGAA	0.227
ACACCCTG	-0.271

Set 3
Target: Interferon regulatory factor 7, full length, phosphomimetic (IRF7, Homo sapiens, UniProt Q92985, residues 1-503, S101K/S471D/S472D/S475D/S476D/S477D/S483D/S484D/S487D)
Method: protein-binding microarray
Molecule type: double-stranded DNA, one strand shown
Sample: in vitro
Concentration: 250 nM
Notes: 60-bp whole probe
Added: salmon DNA 0.4 mg/ml
Reference: random background probes
Reading: higher = stronger binding
Constant ends, left off below: GCCTAGCAC … GTCTTGATTCGCTTGACGCTGCTG
Construct (chain): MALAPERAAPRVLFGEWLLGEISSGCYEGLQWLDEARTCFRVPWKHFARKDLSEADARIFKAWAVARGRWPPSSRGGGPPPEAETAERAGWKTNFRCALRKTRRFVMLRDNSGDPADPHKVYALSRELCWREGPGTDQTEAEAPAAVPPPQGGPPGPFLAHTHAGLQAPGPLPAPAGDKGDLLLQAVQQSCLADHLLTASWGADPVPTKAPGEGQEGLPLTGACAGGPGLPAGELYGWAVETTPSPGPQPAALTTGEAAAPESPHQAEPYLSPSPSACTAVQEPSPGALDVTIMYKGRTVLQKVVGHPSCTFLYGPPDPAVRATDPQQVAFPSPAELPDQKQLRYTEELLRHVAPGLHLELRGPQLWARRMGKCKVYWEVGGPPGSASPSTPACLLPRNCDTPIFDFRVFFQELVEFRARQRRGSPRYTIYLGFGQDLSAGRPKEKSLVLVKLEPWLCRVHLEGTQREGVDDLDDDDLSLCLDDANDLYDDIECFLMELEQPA
Oligonucleotide	log fluorescence [z-score]
TTCTGAACCATTTTGGTTTTGTGCTAG	-0.14
GACGGTATCGACACTGGGGAGGTGCTA	-0.257
GACGGTATCGGCACTGGGGACGTGCTA	-0.78
GACGGAGTGCTACTGCTGACGTGCTAG	-0.667
TCTATCTGCAGACTCTCACAGTGCTAG	0.328
GACGATTCCAGTTTGGAGACGTGCTAG	0.523
TTAGATCTCTGTATCGATTAGTGCTAG	0.236
GGCGGACTGGGTCTCGGGACGTGCTAG	-0.838
TCACTTCTGGTCTTCTGACTGTGCTAG	0.201
TTAGGACTGGAGACTGGGTTAGTGCTA	-0.659
TTAGGTTTCCTACTGCTTTAGTGCTAG	0.942
CTGGGTATTTTTCTAAACCAGTGCTAG	0.697
AGTATGTTCCCTATTTAAGAGTGCTAG	3
GACGATTTCAGTTCCGAGACGTGCTAG	0.425
TTAGGAATGGGTTTCGGTTAGTGCTAG	7.16
GGCGGACTGGGGTATCGGGACGTGCTA	-0.756
TTAGAACTGGGGGTTCGATTAGTGCTA	0.934
TTAGGACGGGGTCTCGGTTAGTGCTAG	0.427
TTCTGAGCCTGGGTGGATGGGTGCTAG	-0.792
TTAGGGCTCCTACTGCTTTAGTGCTAG	-0.466
TCAGTCACCCATCTCAAACTGTGCTAG	-0.131
AGAGTCACCCATCTCAACAAGTGCTAG	-0.177
ATTCTTTGCTCATTTTTCAGGGTGCTA	0.61
TTAGGACTTCTTCTCCTTTAGTGCTAG	0.401

Set 4
Target: RNA binding protein fox-1 homolog 2, RRM domain, GST-SBP tag (RBFOX2, Homo sapiens, UniProt O43251-10, residues 100-194)
Method: RNA Bind-n-Seq
Molecule type: RNA
Sample: in vitro
Concentration: 365 nM
Notes: natural RNA segment, single round, ends assumed
Reference: no-protein control
Reading: higher = stronger binding
Constant ends, left off below: GGGAGUUCUACAGUCCGACGAUC … UGGAAUUCUCGGGUGCCAA
Construct (chain): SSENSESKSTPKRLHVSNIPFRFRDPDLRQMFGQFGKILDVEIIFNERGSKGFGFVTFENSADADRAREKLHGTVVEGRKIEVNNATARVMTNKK
Oligonucleotide	RBNS enrichment (R)
UCCGGGAAGAAGGAGAAGGAGAUGCCCAGUGUGGCCAAGGCUCUCGACACCAGGAGCUGUUGGGAGAAAGCAAUACGUUUGUGCAGAAUCUCUAUGUAUAUUCUAUUUUA	0.646
CAAUGUACAAAUCAAUGUUUUGAAAAUAAUGAUCUCAGACUUUCUAAGUUAAAUUUUAAACAAUUUGAUUGUUUGCCAUAUUGGGUGGGGUUACUCUUAGAAUCGCAUGC	40.1
CCUAACCUUCAGCCGAAUGUAACUGAUAAGUAUAUUCUAUGUAUAAAAAAAUGUUUAAAGAUGUCUUCAAGGAAGACUAGAGUCUUUAAAUCACUUAUAGCUAUAUUUUA	0.552
CGAGAAGACUCUCCUGCUCAGCUCUGAUGAUGAAUUCUAGGUGCGGGCUGCAGUGGCGGAAGUGCUGGCGCCAUAGCCACGGUCAGGCUGUGCCCCACCUCCAGCCUCAC	0.273
ACCUACGGACGCCUGGAAGCUGCGACGCCCUGCACUGCUCCCGCCUCCACCAGCGCCUCCCACUGAUGUCGUGGUCCCGGGCCUGGCCCAGGGGCCCCUUUACAUGCCCU	0.452
GCUCACGCUGCAGAGUCUCUGUGGCGUACCUGGGGGCAUUCUAAGUCCAGUGACUUUUGAAAUUCAACCUUUUUUUAAAAAAAAAAAAUCUAGGGAGGGCGGGGUGAAGU	0.471
CUGAUACCACCUCCACCGCUGAGCAGUGACCUUCCUCACUUUCUCUUGUCCCAGCUUCUCCCCUGGGGGCCUGAGAGACCCUCACCUUCCUUCUGCCCAUCUUCCAUGUU	0.594
AACAUUUUAAUAUGUAUGCAUUCACCUUGCCUCUUGCACAAAUGUCAAAAUGGAAAGAUGGGAAUGUCUCAAAACAAAAUGAGCUUGGAGAUUACCAAGCAGUUUGCUGA	0.293
UUUUAUGCAGACACGUGUCUGAAAAAUUAAAAUCCAUUGUCCAAACUUCCAUACAUUAGGUAACGUCUUAUAAUGUAAGGACAUGGUAUCCACUGCCCUAAAGAUUUAGA	0.483
CGACUUGGGGAAAUAAAUUUCCCACCUCGUCGGCCCCAGCUCUGUUUCUGCCACUCCUGUCCAAGCCCAAAGGACCUACACUAAAGAAAGCAGGAUGGGGGUGGGGGACC	0.257
GCGGGAACUUCCUCCUGAACUACCCAGGGCCUAAUCAUCCAGCACCUGUGUGUUGAGGUAGACUGGUCAGAUACAGGGCAGAAGUCAGGGGUGUAGGUUCGAGGAAGGAG	0.621
UGUCGGCUGCUGCUUCUGGGCCACGGGGAGCCCCAGGACCUAUGCACUUUAUUUCUGACCCCGUGGCUUCGGCUGAGACCUGUGUAACCUGCUGCCCCCUCCACCCCCAA	2.06

Repeated from above (set 2):
Oligonucleotide	E-score
ATTGTTTA	-0.147
CTAACTAG	-0.0161
AGTGATCA	-0.07
TAGTTATA	0.0109
CGACACGC	0.141
GATTACGA	-0.0925
CACGACCC	-0.0901
